# Assay results gathered from unrelated publications.
# Parts stem from different laboratories: compare values within a part only. Substitutions count along the parent as printed.

# Block 1
# Target: RNA binding protein fox-1 homolog 2, RRM domain, GST-SBP tag (RBFOX2, Homo sapiens, UniProt O43251-10, residues 100-194)
# Technique: RNA Bind-n-Seq
# Form: RNA
# Medium: in vitro
# Concentration: 365 nM
# Notes: natural RNA segment, single round, ends assumed
# Relative to: no-protein control
# Reading: higher = stronger binding
# All sequences stand within: GGGAGUUCUACAGUCCGACGAUC … UGGAAUUCUCGGGUGCCAA
# Residues (chain): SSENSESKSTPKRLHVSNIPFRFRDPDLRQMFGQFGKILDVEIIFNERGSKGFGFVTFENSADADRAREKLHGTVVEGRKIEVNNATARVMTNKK
Strand,RBNS enrichment (R)
AAUUUCCUUAUACUGUGGCUUGGUAUUAUUCAAGAUUAGCUAUUUCGCUGGUAUUACAUCUUUUUAAAAGCCUAUUAUAACAUGGUUAGCCUAUAAGGCAGUGUUGGUCC,0.336
CCCCCACAAAGUUAUUUAAAAGAUGCCCUAGCAGCAAUCCACCAGUUUUUCUAAGCUAGAACCUUUGAGUCCCCCAAACUGCCUGAAGACUUAAGUUUUGUGGGCACUGG,0.888
UCCUAACACACAUUCAGAGAAAGGAUAGACUUGGCAUCUCUUGGGUAGGAGUCAGGGCCCAUCCAGACCAGUCACCAUCCAGCCAUGCACUGUCAUCAUCACCCAUAAUG,0.386
GUCAUAUUUCAUUCAAAUGCCAAUUAAUAAAGCAAAGCUGACUGAAGUUGCCUCCCCUGGUGUUCCACCAUCCACAGUUUCUGUAACAUUUACCCAGUGGACAUGAGCGC,0.313
AGAGGAUGUGGCUUUGCAACUCAGAUCAGACAAAGAAUUUUUGAAUUGGCAGGCUUUAGCCUACAAAUGGGUCCCCCAAGUUUUCUAGAUAACAUCCUGCUCUCUGCAGG,0.361
AUUUAUUAUUUUGCUUUUCUUGCUUAAGUAUAAUUGAAAAUAUUUGCAGGAACGCACAAUUCAUUUUAUCAAGUUGAAUGAAUAGGACCAUUCUCUCCUCAUCAGAUUUC,0.421

# Block 2
# Target: Interferon regulatory factor 5, full length, phosphomimetic (IRF5, Homo sapiens, UniProt Q13568-2, residues 1-514, S451D/S453D/S456D/S462D)
# Technique: protein-binding microarray
# Form: double-stranded DNA, one strand shown
# Medium: in vitro
# Concentration: 940 nM top
# Notes: 60-bp whole probe
# With: salmon DNA 0.4 mg/ml
# Relative to: random background probes
# Reading: higher = stronger binding
# All sequences stand within: GCCTAGCAC … GTCTTGATTCGCTTGACGCTGCTG
Strand,fitted relative affinity [z-score]
TCACCTCTCATTCCAATACTGTGCTAG,1.66
CAGTTAATGAAAATTCTAATTGTGCTA,-0.095
AACGAACTGAGTATCGAGACGTGCTAG,1.72
GACGGACTGCTTCTCCTTACGTGCTAG,0.076
GACGGACTGGGGTATCGTGACGTGCTA,-0.0213
TTAGGTTTCGGTCTCGCTTAGTGCTAG,14.3
ACATTCCATGAGCCCACTGGGTGCTAG,-0.0645

# Block 3
# Target: CCND2, cyclin fold, Cln2 fusion (human)
# Technique: yeast growth competition, sequencing
# Medium: yeast
# Notes: weak parent motif
# Relative to: not given
# Reading: higher = stronger binding
# Starting sequence: PKMYT1 docking peptide (human); SFEPRNLLSLFED
Variant,normalised enrichment score
SYEPRNLLSLFED [F2Y],0.232
SVEPRNLLSLFED [F2V],-0.105
SFGPRNLLSLFED [E3G],-0.167
SFEPRNLLSLFER [D13R],-0.196
SFEPRNLTSLFED [L8T],0.316
SFENRNLLSLFED [P4N],-0.0411
SFEPRNLLSLRED [F11R],-0.0997
SFEPNNLLSLFED [R5N],-0.0372
SFEPRNVLSLFED [L7V],-0.132
SFEPRNLLSLFGD [E12G],-0.349

# Mixed results
Molecule,target,assay,system,setting,scale,endpoint,result
"PhoQ, residues 284 288 289 292 302 303 SNSSNI","PhoP, residues 12 14 15 18 19 LHTVM (Escherichia coli, UniProt P23836)","Sort-seq, refers to: YFP reporter",E. coli,"PhoQ-PhoP variant library, with: 10 µM Mg2+","relative to: high Mg2+ state, higher = stronger signaling",fold induction,5.54

# Some of these lines once more (block 3):
Variant,normalised enrichment score
SFGPRNLLSLFED [E3G],-0.167
SFEPRNLLSLFER [D13R],-0.196
